Published values of several laboratories.
Each numbered part is a random draw from the data of one study; scales do not carry over between parts. Substitutions count along the parent as printed.

Series 1
Target: CCND1, cyclin fold, Cln2 fusion (human)
Technique: yeast growth competition, sequencing
Matrix: yeast
Notes: weak parent motif
Relative to: not given
Reading: higher = stronger binding
Starting sequence: MICAL3 docking peptide (human); LQLRRQLSFSEDS; partner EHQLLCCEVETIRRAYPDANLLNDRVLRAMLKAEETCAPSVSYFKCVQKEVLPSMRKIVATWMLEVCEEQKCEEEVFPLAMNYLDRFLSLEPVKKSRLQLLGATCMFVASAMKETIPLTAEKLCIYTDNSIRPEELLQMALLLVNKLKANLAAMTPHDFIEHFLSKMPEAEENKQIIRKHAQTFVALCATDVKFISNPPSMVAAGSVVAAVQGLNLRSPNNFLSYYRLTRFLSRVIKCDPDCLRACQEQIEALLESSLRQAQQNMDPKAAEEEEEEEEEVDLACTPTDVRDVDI
Substitution | normalised enrichment score
S10L | 0.233
Q6N | 0.101
D12S | 0.0425
S8K | -0.088
R5G | 0.155
Q2R | -0.0371
R5S | -0.47
Q2A | 0.233
D12K | 0.0344
R5W | 0.00427
S10E | 0.851
S10K | -0.0136
Q6L | 0.187
Q2I | 0.0619
D12V | 0.788
S8R | -0.424
F9D | -0.133
L3I | 1.21
R5K | 0.13
L7R | -0.134
Q2K | 0.286
Q6F | -0.166
F9M | -0.0383
E11W | 0.113
D12Y | 0.368

Series 2
Target: Histone acetyltransferase KAT6A, winged helix 1, GST fusion (KAT6A, Homo sapiens, UniProt Q92794, residues 1-85)
Technique: protein binding microarray
Molecule type: double-stranded DNA, one strand shown
Matrix: in vitro
Tested at: not given
Notes: 8-mer, flanks averaged, mean of 2 arrays, mostly near background
Relative to: not given
Reading: higher = stronger binding
Residues (chain): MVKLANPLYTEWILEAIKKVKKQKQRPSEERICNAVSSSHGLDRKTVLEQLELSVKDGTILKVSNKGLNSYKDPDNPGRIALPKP
Oligonucleotide | E-score
CCATTGCC | 0.0147
CCTTTAAG | -0.0925
AGCTCAGA | -0.223
CCTAAACA | -0.0334
CATACCAC | -0.157
ACGGTCAA | 0.228
CCCGTCCG | 0.423
CGCATCGC | 0.268
ACATGGTG | -0.114
CGTATACG | 0.281
ATAATGCG | 0.13
GCACCTAC | -0.0639
ACCAAGTA | -0.0801
TTATATAA | -0.0505
GAACGCAA | -0.105
ATCAGCCC | -0.088
CCGACTGC | 0.199

Series 3
Target: RNA binding protein fox-1 homolog 2, RRM domain, GST-SBP tag (RBFOX2, Homo sapiens, UniProt O43251-10, residues 100-194)
Technique: RNA Bind-n-Seq
Molecule type: RNA
Matrix: in vitro
Tested at: 365 nM
Notes: natural RNA segment, single round, ends assumed
Relative to: no-protein control
Reading: higher = stronger binding
Shared flanks, not repeated: GGGAGUUCUACAGUCCGACGAUC … UGGAAUUCUCGGGUGCCAA
Target sequence (chain): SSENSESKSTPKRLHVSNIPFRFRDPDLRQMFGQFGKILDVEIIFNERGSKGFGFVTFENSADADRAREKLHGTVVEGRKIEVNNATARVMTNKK
Oligonucleotide | RBNS enrichment (R)
UCCUAGUCCCCGUGAGCCCUGCAGAGCCCAGUGGAGUACCCUCCCAAUAAAGGCUGUGGCGAGGCUGGGCCCAUGUCUGUAUGUGUGGUGGGUCCCACAAGGGUGACAGG | 0.811
GCACAGCAGAAAACAGAAUUGAAGUUGGGAAACUCUAGAGUCUGGGCAAAAUGUUUGGUUUUUUCUCUUAAAAAAAAUAACACCCCAUUACCAAAAGAAAAGGUAAGGUG | 0.753
GUUUUACUGGAUUCUCAGGGAGCCCUCUGUGGCCUUUUCCUUUAUUUUGAGUGCUGUUUCCUUUUUAGGAAAGAACAGCACUGUGGAAAUUUGCUUUUCCCCAUAGCAUG | 1.39
UUUGUUUGUUUGUUUUCCCCCCUCUCCUAGUUUUUACCUAGGUUUUCAGGACGCCUCGUGUUUUUGUUUUCUGCUGGAUCUGUGUGGUGGUGUUAGCGUCGUUUGCCUAG | 4.32
UGUUUGUGUCCUUUUACCCUAAAAUAUAUGAAGGCUUCCUUUUCAAGAUUUUUUUAUAAGAAGUUCCUACAGAAAGAAUAUUUGUGGGAAACCUCCCUUUCACUAACUUC | 0.525
CCCGUUCUUGGGUGUAAUGUUGCUCCCUGAUCCCAUAUCCCUGUGAAAAUGACUUAGGAAAAAACGUUUCUGAGCAAGCAUUCUGGCCCAUGCACUGGCUGAAGUGGGCA | 0.758
GUAUGCUAAGGGGAAAAAAAAAUUUAGGAUAGAAAACUUGAGCAUUGUAUAUGUUUCCUGGAUGUCCUUGACGGGUACAAACACUGAUGUGGUGGUAGCCAUCCCACAUG | 1.07
GAGCCAGCAGGCCCCACUGUAUUAUGUAUAUAUUUUUCAAGGUCUGUUUUUCUAACUGAAAAGCUAAGGGCUUGAUUCCUAGCCCCGUUCUGUGGGGCACUGGGUGAUAC | 0.375
GGCAUUUUACCCUUGCAGUUUUACUAAAACACUGAAAAAUAUUCCAAGCUUCAUAUUAACCCUACCUGUCAACGUAACGAUUUCAUGAACGUUAUUAUAUUGUCGAAUUC | 0.354
UGACUCAUGUCCCAGGUCUAAGAAAUCUAAAGUGGACUGAGGCAGGCUCCCUUGUGUGUCCCUAUACCCUCCAGCCCUCCUUUAGGGUUCUUUUGGGGGUAAGGGGCUAA | 0.296
UAUAAUGUAGGGGGAUAGCGGGAUAUUUUUGUUUGUGUUCUUGUAAUAUAUUAUCCUUCCUUGGUUCUAGAAGAAUAGAUAAAUAUAUUUUUUUAGGCUAUAGAAUGAUA | 1.38
CUGGUGGCUCCUAGUGUCCCCUGGGACCAUGCUGUAGAGACUUUUAAGUUGCAUGCACUGCGGGACUUGCAGUCAGCUGGCUGCCAUUAUUCAUAGCCGCUUGGUAUGCA | 4.34

Series 4
Target: Centromere-binding protein 1, full length, His-tagged (CBF1, Saccharomyces cerevisiae, UniProt P17106, residues 1-351)
UniProt P17106, sequence (whole entry, looked up): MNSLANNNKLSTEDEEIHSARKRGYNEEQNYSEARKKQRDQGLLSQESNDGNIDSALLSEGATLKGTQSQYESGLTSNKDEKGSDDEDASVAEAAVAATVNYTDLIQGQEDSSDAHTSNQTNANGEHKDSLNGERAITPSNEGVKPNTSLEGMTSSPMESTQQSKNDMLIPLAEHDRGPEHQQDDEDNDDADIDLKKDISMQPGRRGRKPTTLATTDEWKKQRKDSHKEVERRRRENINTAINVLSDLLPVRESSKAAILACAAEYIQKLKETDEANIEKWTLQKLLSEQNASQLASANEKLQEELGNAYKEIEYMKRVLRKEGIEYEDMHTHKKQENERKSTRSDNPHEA
Technique: competition protein-binding microarray
Molecule type: double-stranded DNA, one strand shown
Matrix: in vitro
Tested at: 2 µM
Notes: whole 60-bp probe, lowest competitor level
Added: Pho4 competitor, 0.05 µM
Reading: higher = stronger binding
Shared flanks, not repeated: … GTCTTGATTCGCTTGACGCTGCTG
Oligonucleotide | fluorescence intensity
CTTCTGTAAATTTGCGGCGTGGGTGGACGCGCCCCG | 76.8 a.u.
TACTCAGAATATGAAAACGTGTCGGACGGGGATGAC | 177 a.u.
GGAAAGGCTCTTCAACACGTGGCAACATAGGTTAAT | 1050 a.u.
GCCGCAAAATCCTCCATCGTGCTTTATATTTCGTCT | 71.7 a.u.
CTAACGAAGGTTTGGGATGTGGGTGACAAGCCAAGT | 76 a.u.
CTTTCCCGATCTTGCTGAGTGGGTGTAGCACATTTG | 68.2 a.u.
GGGATGAAAGTTCTGCGTGTGTTGGTTACTTAGGTT | 104 a.u.
TCATGTTAATTGTAACGGCTATATCTACTGGGTAGA | 101 a.u.
GTATTTATGGCCTGGCACGTTCATTTCCTACATCCT | 94.3 a.u.
CTTCGCGCCACATCGCACGGGTGCAGGAACAACTGT | 64.5 a.u.
GTCAACGCAGATTTGCAGATGCAAGCAAGAATACAT | 70 a.u.
GTAAAAAATAGCATTTGCGTGCTTTAGTGAAATTTT | 82 a.u.
CTTCTGTAAATTTGCCACGTGTTTTGACGCGCCCCG | 967 a.u.
CTTGGCAAGTTTCCCCTCGTGGTGAAGGATGGCTCT | 69.5 a.u.
CTTCTTTTTTTGGATTACGTGCTTTTAAAGCGGGAT | 92.2 a.u.
CTTCTGTAAATTTGTCACGCTACTTGACGCGCCCCG | 280 a.u.
TGTTTGGGTTTTTAGCACGTCGTACACTGGCCTTTA | 78.7 a.u.
CGCTGAGTACTTCCTCACCTGATCCAATCGATTGAC | 357 a.u.
TCTTCTTTTGGTTGGCATGCGTGTAGGCTTCAAGGT | 98.5 a.u.
GTCTTGTCTCATTGGCATGTGGGTGTCCCCACTTCA | 107 a.u.
CGGGGTTAAGTTTGGGATGTGGGTGGCTTGCAGCAG | 63.9 a.u.
TACGATACTACCATACATGTGATATGTCCCTTTCTA | 502 a.u.
ATTCCACTAGGGCTGGTCGTGGGTAACTTGGGGAGC | 62.5 a.u.
AAATTACTAAGTTTTCACGTGCGGTACCCCGTATGA | 784 a.u.
TGCGCAACAACTTGAGTTGTGGGTGTATGTCTAGAA | 73.1 a.u.

Series 5
Target: Interferon regulatory factor 5, full length, phosphomimetic (IRF5, Homo sapiens, UniProt Q13568-2, residues 1-514, S451D/S453D/S456D/S462D)
Technique: protein-binding microarray
Molecule type: double-stranded DNA, one strand shown
Matrix: in vitro
Tested at: 940 nM top
Notes: 60-bp whole probe
Added: salmon DNA 0.4 mg/ml
Relative to: random background probes
Reading: higher = stronger binding
Shared flanks, not repeated: GCCTAGCAC … GTCTTGATTCGCTTGACGCTGCTG
Oligonucleotide | fitted relative affinity
TCATCTCTGGGCTGTGGGACTGTGCTA | 0.334 z-score
GACGCTTTCGGTATCGGGACGTGCTAG | 6.67 z-score
ATGACTCCCTCTCTGGCCAAGTGCTAG | 0.214 z-score
TTGGGACTGGGTATCGGTTAGTGCTAG | 3.4 z-score
GAGGGTTTCGGGTTTCGGGACGTGCTA | 7.47 z-score
TTAGGTTTCGGTTTCGGTTGGTGCTAG | 17.3 z-score
TCAATTTTCCCCTACTGACTGTGCTAG | 1.16 z-score
TTAGGTTTCCTTCTCCTTTTGTGCTAG | 2.09 z-score
TTAGGACTGGGTATCGGATAGTGCTAG | 0.87 z-score
TCATTTCCCAACATCAGACTGTGCTAG | 1.19 z-score
GACGAACTGGGGTATGGAGACGTGCTA | 0.506 z-score
CTAGTTGTACTTTCTATCTCTGTGCTA | 1.24 z-score
AGTCCTGTCCAAGATGAGGAGTGCTAG | -0.325 z-score
CCTCCTCTCTCTTTCCACTTGTGCTAG | 2.3 z-score
GACGATCTCAGTCTCGACACGTGCTAG | 0.928 z-score
TGAAATCTCTTTCCTTACTTGTGCTAG | 1.14 z-score
